Measurements from different studies.
Parts stem from different laboratories: compare values within a part only.
Sequence of UniProt O14976 (whole entry, looked up): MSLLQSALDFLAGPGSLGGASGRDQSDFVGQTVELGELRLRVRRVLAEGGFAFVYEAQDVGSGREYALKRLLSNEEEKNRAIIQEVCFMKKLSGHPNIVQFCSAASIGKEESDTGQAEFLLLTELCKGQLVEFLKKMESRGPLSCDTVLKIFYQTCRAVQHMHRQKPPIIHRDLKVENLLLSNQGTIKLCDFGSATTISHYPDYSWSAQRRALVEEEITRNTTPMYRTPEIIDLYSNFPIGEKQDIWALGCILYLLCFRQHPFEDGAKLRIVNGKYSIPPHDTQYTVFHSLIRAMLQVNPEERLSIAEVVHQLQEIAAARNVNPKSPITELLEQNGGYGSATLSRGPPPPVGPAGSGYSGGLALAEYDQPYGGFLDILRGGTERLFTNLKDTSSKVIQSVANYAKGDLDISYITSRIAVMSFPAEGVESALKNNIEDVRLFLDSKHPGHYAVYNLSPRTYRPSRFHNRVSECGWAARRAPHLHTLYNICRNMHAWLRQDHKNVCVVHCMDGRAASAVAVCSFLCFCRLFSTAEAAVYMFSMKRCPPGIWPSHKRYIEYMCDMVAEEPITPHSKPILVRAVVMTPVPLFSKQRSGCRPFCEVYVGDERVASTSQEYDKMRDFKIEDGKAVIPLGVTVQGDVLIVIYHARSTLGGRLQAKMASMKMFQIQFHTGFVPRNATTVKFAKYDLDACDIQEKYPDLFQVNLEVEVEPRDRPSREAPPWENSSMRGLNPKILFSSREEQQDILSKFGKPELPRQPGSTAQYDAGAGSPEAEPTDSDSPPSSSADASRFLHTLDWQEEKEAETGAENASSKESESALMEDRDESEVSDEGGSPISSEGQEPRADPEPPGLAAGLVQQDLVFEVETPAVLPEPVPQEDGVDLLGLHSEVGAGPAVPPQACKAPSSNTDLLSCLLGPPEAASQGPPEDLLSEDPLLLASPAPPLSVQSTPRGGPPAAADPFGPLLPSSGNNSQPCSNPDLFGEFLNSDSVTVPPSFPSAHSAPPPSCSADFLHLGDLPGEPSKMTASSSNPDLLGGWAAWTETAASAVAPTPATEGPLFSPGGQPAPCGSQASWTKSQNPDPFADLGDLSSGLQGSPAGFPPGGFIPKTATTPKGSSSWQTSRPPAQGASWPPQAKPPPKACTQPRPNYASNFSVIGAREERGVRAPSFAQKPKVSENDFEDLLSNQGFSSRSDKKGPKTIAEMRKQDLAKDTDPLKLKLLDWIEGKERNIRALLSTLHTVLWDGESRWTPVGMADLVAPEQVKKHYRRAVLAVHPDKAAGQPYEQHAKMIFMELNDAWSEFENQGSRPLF
Sequence of UniProt Q15303 (whole entry, looked up): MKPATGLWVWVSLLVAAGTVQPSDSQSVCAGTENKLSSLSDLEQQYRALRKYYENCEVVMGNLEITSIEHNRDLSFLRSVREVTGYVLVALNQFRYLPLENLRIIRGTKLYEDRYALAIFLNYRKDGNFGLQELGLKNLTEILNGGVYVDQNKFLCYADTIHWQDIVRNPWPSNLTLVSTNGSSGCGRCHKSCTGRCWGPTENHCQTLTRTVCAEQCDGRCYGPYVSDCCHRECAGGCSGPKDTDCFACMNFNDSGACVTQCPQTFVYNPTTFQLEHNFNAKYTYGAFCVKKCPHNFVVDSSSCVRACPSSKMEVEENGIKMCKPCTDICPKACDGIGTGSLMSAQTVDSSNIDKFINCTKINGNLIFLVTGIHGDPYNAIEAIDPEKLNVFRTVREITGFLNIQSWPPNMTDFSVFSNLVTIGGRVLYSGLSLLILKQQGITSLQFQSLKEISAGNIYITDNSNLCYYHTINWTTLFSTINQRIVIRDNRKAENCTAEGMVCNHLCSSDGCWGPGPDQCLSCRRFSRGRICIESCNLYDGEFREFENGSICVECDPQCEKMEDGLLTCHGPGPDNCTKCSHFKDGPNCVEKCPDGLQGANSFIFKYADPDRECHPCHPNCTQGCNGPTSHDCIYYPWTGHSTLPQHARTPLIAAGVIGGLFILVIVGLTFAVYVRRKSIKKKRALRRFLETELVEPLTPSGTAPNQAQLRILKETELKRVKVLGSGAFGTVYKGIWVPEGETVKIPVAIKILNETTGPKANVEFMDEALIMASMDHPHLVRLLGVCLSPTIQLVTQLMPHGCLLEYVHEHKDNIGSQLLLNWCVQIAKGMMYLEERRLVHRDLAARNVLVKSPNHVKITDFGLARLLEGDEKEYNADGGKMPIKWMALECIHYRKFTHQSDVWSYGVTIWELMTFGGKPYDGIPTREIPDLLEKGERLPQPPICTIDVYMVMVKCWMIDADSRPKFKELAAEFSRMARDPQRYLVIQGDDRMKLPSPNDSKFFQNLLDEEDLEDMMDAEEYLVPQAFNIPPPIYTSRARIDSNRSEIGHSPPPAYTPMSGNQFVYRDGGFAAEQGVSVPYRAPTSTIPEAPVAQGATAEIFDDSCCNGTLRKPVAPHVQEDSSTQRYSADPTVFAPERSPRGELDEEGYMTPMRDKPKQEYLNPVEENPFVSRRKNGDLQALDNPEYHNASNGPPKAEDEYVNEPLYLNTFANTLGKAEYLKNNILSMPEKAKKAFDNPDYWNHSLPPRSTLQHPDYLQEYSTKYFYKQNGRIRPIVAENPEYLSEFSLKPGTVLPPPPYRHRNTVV
Sequence of UniProt P57059 (whole entry, looked up): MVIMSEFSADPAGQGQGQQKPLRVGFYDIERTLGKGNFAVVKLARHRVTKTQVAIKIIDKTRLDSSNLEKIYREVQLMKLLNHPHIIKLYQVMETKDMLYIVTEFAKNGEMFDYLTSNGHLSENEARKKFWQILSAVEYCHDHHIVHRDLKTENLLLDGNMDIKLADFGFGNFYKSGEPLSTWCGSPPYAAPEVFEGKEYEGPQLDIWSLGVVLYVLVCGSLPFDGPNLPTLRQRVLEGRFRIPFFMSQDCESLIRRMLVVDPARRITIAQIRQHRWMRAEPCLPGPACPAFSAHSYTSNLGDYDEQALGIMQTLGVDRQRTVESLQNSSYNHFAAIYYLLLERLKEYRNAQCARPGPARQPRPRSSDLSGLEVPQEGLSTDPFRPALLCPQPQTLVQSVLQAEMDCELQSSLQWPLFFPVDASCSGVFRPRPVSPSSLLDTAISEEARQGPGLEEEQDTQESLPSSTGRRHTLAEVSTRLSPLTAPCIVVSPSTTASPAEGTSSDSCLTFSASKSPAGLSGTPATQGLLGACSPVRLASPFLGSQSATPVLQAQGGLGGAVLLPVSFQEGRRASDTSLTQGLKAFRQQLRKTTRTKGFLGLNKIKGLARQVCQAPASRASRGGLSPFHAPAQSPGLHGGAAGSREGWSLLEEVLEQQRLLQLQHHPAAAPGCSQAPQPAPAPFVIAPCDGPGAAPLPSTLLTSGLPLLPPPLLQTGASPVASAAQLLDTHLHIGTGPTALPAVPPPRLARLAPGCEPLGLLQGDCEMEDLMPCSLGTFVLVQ
Sequence of UniProt P52333 (whole entry, looked up): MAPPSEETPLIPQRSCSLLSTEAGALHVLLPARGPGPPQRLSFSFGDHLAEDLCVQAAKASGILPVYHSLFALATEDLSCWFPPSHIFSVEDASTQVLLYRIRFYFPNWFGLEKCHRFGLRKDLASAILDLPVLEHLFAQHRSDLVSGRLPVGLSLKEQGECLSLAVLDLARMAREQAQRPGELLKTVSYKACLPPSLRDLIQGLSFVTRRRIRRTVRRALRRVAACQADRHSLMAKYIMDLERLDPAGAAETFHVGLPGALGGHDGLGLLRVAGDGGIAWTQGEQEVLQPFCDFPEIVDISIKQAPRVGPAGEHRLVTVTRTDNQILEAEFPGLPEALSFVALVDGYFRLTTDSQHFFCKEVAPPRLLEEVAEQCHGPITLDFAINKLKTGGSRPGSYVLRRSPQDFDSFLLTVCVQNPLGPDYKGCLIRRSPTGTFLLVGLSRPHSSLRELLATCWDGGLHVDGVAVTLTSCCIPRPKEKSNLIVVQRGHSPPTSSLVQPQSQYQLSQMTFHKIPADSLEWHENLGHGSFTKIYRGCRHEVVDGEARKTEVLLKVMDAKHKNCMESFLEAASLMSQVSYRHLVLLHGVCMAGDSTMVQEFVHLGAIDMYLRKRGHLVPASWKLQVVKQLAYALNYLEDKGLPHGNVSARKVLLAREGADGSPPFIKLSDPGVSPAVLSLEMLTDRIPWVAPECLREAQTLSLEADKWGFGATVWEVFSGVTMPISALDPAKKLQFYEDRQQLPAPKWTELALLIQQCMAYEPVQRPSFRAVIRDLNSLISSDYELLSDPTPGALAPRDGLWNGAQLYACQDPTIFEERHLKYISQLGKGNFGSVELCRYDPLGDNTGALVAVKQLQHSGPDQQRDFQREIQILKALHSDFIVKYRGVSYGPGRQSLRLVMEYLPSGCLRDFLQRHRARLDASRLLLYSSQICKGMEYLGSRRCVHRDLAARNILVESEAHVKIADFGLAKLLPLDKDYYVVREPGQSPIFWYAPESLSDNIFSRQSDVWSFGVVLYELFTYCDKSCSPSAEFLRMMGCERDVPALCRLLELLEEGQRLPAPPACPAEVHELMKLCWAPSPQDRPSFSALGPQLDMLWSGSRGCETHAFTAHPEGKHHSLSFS

Study 1 — tested at: 1 µM
Structure (SMILES): O=C1CCc2cc(Nc3cc(OC4CCOCC4)c([N+](=O)[O-])cc3Cl)ccc2N1
For ERBB4 (Homo sapiens, UniProt Q15303); cell-free assay, competition with immobilised ligand: remaining binding read 100%.
For Tyrosine-protein kinase JAK3, JH1 (JAK3, Homo sapiens, UniProt P52333); cell-free assay, competition with immobilised ligand: remaining binding read 96%.
The remaining binding was 100% (STK39 (Homo sapiens, UniProt Q9UEW8); cell-free assay, competition with immobilised ligand).
The remaining binding was 65% (EGFR (Homo sapiens, UniProt P00533, del747-752/P753S); cell-free assay, competition with immobilised ligand).
For PKN2 (Homo sapiens, UniProt Q16513); cell-free assay, competition with immobilised ligand: remaining binding read 100%.
It gave 100% for remaining binding (CAMK4 (Homo sapiens, UniProt Q16566); cell-free assay, competition with immobilised ligand).
The remaining binding was 60% (TNNI3K (Homo sapiens, UniProt Q59H18); cell-free assay, competition with immobilised ligand).
PIP4K2B (Homo sapiens, UniProt P78356); cell-free assay, competition with immobilised ligand — remaining binding: 100%.
The remaining binding was 100% (CILK1 (Homo sapiens, UniProt Q9UPZ9); cell-free assay, competition with immobilised ligand).
The remaining binding was 79% (ABL2 (Homo sapiens, UniProt P42684); cell-free assay, competition with immobilised ligand).
It gave 96% for remaining binding (SIK1 (Homo sapiens, UniProt P57059); competition binding).
The remaining binding was 100% (MKNK1 (Homo sapiens, UniProt Q9BUB5); cell-free assay, competition with immobilised ligand).
GAK (Homo sapiens, UniProt O14976); cell-free assay, competition with immobilised ligand — remaining binding: 100%.
For PRKX (Homo sapiens, UniProt P51817); cell-free assay, competition with immobilised ligand: remaining binding read 100%.
It gave 91% for remaining binding (HIPK3 (Homo sapiens, UniProt Q9H422); cell-free assay, competition with immobilised ligand).
For VRK2 (Homo sapiens, UniProt Q86Y07); cell-free assay, competition with immobilised ligand: remaining binding read 100%.
It gave 94% for remaining binding (BLK (Homo sapiens, UniProt P51451); cell-free assay, competition with immobilised ligand).

Study 2 — organism: Sarcocystis neurona; observed: parasite growth; tested at: 10 µM; setting: secondary screen
With `c1cnc(N2CCN(Cc3ccc4c(c3)OCO4)CC2)nc1` the inhibition was -51.3%.
`O=C1CC[C@@H](C(=O)N2CSC[C@H]2C(=O)O)N1` gave an inhibition of -32.5%.
The inhibition of `CO[C@H]1/C=C/O[C@@]2(C)Oc3c(C)c(O)c4c(O)c(c5c(nc6cc(C)ccn65)c4c3C2=O)NC(=O)/C(C)=C\C=C\[C@H](C)[C@H](O)[C@@H](C)[C@@H](O)[C@@H](C)[C@H](OC(C)=O)[C@@H]1C` is reported as -41.9%.
`O=C(O)COCCN1CCN([C@H](c2ccccc2)c2ccc(Cl)cc2)CC1` has an inhibition of -46.6%.
The inhibition of `COc1ccc2c3c1O[C@H]1C[C@@H](O)C=C[C@@]31CCN(C)C2` is reported as -33.2%.
The inhibition of `CCN(CC)CCOc1ccc(C(=C(Cl)c2ccccc2)c2ccccc2)cc1` is reported as -9.8%.
For `CCC1=C(C)CN(C(=O)NCCc2ccc(S(=O)(=O)NC(=O)N[C@H]3CC[C@H](C)CC3)cc2)C1=O`, the inhibition was -63.5%.

Study 3 — observed: enzyme activity; action: inhibitor; tested at: 0.5 µM; baseline: control
Target: Activin receptor type-1-like (ACVRL1, Homo sapiens, UniProt P37023)
Sequence of UniProt P37023 (whole entry, looked up): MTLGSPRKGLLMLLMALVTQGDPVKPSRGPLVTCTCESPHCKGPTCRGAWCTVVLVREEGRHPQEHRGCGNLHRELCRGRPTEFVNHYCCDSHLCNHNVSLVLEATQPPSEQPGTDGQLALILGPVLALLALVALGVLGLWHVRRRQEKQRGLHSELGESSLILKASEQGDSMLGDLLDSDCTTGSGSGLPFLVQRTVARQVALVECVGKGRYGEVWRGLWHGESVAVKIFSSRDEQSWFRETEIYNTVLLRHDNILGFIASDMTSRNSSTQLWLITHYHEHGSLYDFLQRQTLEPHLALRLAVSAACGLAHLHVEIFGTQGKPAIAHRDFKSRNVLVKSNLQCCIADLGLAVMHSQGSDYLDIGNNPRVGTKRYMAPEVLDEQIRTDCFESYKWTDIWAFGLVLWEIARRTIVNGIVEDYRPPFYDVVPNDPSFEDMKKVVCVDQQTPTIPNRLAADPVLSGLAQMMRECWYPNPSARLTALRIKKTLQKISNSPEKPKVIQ
With `Cc1cncc2cccc(S(=O)(=O)N3CCCN(C(=O)CN)C[C@@H]3C)c12` the remaining activity was 99.2%.
With `O=S(=O)(NCCNC/C=C/c1ccc(Br)cc1)c1cccc2cnccc12` the remaining activity was 119%.
With `NC(=O)c1ccc(N(C(N)=O)c2c(F)cccc2F)nc1-c1ccc(F)cc1F` the remaining activity was 99.3%.
`Oc1ccc(Nc2nc(-c3ccc(Cl)cc3)cs2)cc1` gave a remaining activity of 103%.
`O=C1NC(=O)C(c2c[nH]c3ccccc23)=C1c1c[nH]c2ccccc12` has a remaining activity of 96.5%.
The remaining activity of `Cc1ccc(NC2=CC(=O)c3sc(C)nc3C2=O)cc1` is reported as 101%.
The remaining activity of `CC(C)(C)n1nc(Cc2cccc3ccccc23)c2c(N)ncnc21` is reported as 116%.
For `CC#CC(=O)Nc1cc2c(Nc3ccc(F)c(Cl)c3)ncnc2cn1`, the remaining activity was 101%.
The remaining activity of `Nc1nc(Nc2ccc(S(N)(=O)=O)cc2)nn1C(=O)c1c(F)cccc1F` is reported as 88.5%.
`CCc1[nH]c(-c2ccc(OC)cc2)nc1-c1ccncc1` has a remaining activity of 101%.
`N#CC(=C(N)Sc1ccc(N)cc1)c1ccccc1C(F)(F)F` gave a remaining activity of 106%.
With `CC(=O)c1ccc(N2CCOCC2)cc1O` the remaining activity was 103%.

Other studies, line by line
For `C[C@@H]1CN(c2ccc(-c3cc(C(=O)NCCOCCOCCOCCOCCNC(=O)/C=C/c4[nH]cc(C(=O)N[C@@H](CC(N)=O)c5ccc(F)c(Cl)c5)c4-c4ccc(Cl)cc4F)ccc3F)cc2NC(=O)c2c[nH]c(=O)cc2C(F)(F)F)C[C@H](C)N1C`, “association rate constant” read 73000 M⁻¹ s⁻¹ (WD repeat-containing protein 5 (WDR5, Homo sapiens, UniProt P61964); SPR).

Excerpt of the above (study 3):
`O=C1NC(=O)C(c2c[nH]c3ccccc23)=C1c1c[nH]c2ccccc12` has a remaining activity of 96.5%.
The remaining activity of `Cc1ccc(NC2=CC(=O)c3sc(C)nc3C2=O)cc1` is reported as 101%.
The remaining activity of `CC(C)(C)n1nc(Cc2cccc3ccccc23)c2c(N)ncnc21` is reported as 116%.
For `CC#CC(=O)Nc1cc2c(Nc3ccc(F)c(Cl)c3)ncnc2cn1`, the remaining activity was 101%.
The remaining activity of `Nc1nc(Nc2ccc(S(N)(=O)=O)cc2)nn1C(=O)c1c(F)cccc1F` is reported as 88.5%.
`CCc1[nH]c(-c2ccc(OC)cc2)nc1-c1ccncc1` has a remaining activity of 101%.
